Experimental data gathered from unrelated publications.
± marks the error that the study gave.
4'-phosphopantetheinyl transferase PptT: 4'-phosphopantetheinyl transferase PptT (Mycobacterium tuberculosis, UniProt O33336)
Sequence of UniProt O33336 (whole entry, looked up): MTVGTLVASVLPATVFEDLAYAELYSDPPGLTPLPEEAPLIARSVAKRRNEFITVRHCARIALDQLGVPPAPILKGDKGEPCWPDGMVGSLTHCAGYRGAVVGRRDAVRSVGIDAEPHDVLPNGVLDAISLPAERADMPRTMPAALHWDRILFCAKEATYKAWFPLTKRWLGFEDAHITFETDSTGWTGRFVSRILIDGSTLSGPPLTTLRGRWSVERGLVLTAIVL
F2 gamma-thrombin: Prothrombin, gamma-thrombin (F2, Homo sapiens, UniProt P00734)
Sequence of UniProt P21554 (whole entry, unmodified, looked up): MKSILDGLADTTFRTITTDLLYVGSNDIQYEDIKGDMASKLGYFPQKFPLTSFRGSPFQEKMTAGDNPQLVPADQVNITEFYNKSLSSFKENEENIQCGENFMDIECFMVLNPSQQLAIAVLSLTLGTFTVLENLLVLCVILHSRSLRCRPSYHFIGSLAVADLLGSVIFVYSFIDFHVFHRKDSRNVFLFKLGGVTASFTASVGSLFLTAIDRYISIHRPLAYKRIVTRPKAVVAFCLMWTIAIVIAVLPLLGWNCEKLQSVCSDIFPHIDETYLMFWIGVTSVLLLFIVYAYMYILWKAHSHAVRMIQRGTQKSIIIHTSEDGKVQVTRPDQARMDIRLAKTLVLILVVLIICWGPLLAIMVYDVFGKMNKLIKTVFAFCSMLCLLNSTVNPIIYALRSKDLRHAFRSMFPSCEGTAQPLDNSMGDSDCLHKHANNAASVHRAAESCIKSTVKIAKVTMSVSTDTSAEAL
Sequence of UniProt P41143 (whole entry, unmodified, looked up): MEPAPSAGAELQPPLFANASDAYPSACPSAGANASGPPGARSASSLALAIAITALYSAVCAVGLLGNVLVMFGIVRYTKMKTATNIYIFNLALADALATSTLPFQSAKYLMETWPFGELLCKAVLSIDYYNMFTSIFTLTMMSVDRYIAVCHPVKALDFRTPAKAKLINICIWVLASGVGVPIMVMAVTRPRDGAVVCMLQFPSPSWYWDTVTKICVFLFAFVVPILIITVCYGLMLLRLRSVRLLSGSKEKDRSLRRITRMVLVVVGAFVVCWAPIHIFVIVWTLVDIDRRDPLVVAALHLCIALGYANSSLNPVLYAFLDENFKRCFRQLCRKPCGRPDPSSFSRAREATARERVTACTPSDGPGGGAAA
Sequence of UniProt P25774 (whole entry, looked up): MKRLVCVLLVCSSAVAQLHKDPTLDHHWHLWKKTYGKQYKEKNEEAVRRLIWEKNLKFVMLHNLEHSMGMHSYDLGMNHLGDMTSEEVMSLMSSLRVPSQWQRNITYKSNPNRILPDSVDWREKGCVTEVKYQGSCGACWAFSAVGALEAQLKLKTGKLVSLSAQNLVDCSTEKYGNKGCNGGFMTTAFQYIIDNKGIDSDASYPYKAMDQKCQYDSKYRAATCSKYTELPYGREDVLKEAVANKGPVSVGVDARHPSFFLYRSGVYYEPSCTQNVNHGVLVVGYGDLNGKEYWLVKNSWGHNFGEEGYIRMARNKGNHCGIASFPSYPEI
Sequence of UniProt Q9H3N8 (whole entry, looked up): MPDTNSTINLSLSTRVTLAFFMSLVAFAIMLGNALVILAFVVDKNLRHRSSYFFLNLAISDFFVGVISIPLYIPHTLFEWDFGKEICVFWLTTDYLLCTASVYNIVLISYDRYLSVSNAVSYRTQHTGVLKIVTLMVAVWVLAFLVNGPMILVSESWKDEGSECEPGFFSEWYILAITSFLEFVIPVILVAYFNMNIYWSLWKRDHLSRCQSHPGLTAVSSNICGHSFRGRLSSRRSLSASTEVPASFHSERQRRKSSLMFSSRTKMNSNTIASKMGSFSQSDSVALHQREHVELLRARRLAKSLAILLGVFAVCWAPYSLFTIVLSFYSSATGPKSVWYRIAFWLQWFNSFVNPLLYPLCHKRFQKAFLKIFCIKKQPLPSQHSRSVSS
Sequence of UniProt P34972 (whole entry, unmodified, looked up): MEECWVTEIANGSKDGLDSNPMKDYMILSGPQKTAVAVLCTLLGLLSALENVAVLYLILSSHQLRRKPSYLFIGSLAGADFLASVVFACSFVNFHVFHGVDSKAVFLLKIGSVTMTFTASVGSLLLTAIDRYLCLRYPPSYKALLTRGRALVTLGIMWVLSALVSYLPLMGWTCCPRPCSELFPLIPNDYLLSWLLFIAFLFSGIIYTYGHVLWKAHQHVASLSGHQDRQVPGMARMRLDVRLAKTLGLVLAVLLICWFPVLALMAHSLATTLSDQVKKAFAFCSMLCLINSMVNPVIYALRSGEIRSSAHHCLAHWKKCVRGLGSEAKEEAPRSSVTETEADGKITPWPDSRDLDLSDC

| SMILES | target | test | conditions | endpoint | value |
| --- | --- | --- | --- | --- | --- |
| O=C1CCc2c(ccc3ccccc23)O1 | Carbonic anhydrase (Vibrio cholerae serotype O1, UniProt Q9KMP6) | enzyme activity, inhibitor, stopped-flow | – | Ki | 14300 nM |
| C=CCN(Cc1ccc2nc(C)[nH]c(=O)c2c1)c1ccc(C(=O)N[C@H](CCC(=O)O)C(=O)O)s1 | 4'-phosphopantetheinyl transferase PptT | enzyme activity, inhibitor, FP | – | IC50 | 18 nM |
| CC[C@H](C)[C@H](NC(=O)[C@@H]1CCCN1C(=O)[C@H](CCC(=O)O)NC(=O)[C@H](CCSC)NC(=O)CNC(=O)[C@H](CC(N)=O)NC(=O)CNC(=O)CNC(=O)[C@H](CCC(=O)O)NC(=O)CNC(=O)[C@H](CCCNC(=N)N)NC(=O)[C@H](CCC(N)=O)NC(=O)[C@H](Cc1ccc(O)cc1)NC(=O)[C@H](CC(C)C)NC(=O)[C@H](CCCCN)NC(=O)[C@@H]1CCCN1C(=O)[C@H](CCC(N)=O)NC(=O)[C@H](C)NC(=O)[C@@H](NC(=O)[C@H](CCC(=O)O)NC(=O)[C@H](C)NC(=O)[C@H](CCC(=O)O)NC(=O)[C@@H](NC(=O)[C@@H]1CCCN1C(=O)[C@@H](N)CCCCN)C(C)C)C(C)C)C(=O)N1CCC[C@H]1C(=O)N[C@@H](CCC(=O)O)C(=O)N[C@@H](CC(=O)O)C(=O)N[C@@H](Cc1ccc(OS(=O)(=O)O)cc1)C(=O)N[C@@H](CC(C)C)C(=O)N[C@@H](CC(=O)O)C(=O)N[C@@H](CC(=O)O)C(=O)N[C@@H](CCC(=O)O)C(=O)N[C@@H](CO)C(=O)O | F2 gamma-thrombin | – | pH 8 | Ki | 2120 ± 116 nM |
| C#CCN(Cc1ccc2nc(C)[nH]c(=O)c2c1)c1ccc(C(=O)N[C@@H](CCC(=O)O)C(=O)O)cc1 | 4'-phosphopantetheinyl transferase PptT | enzyme activity, inhibitor, fluorescence polarization | enzyme 100 nM | IC50 | 65 nM |
| CCCCCn1cc(C(=O)c2cccc3ccccc23)c2ccccc21 | CNR2 (Homo sapiens, UniProt P34972, V261L) | cAMP, agonist, BRET | – | EC50 | 1.32 nM |
| CCN(CC)C(=O)c1ccc(C(c2cccc(O)c2)N2CC(C)N(Cc3ccccc3)CC2C)cc1 (centres unmarked) | OPRD1 (Homo sapiens, UniProt P41143, A309I) | – | – | Ki | 0.19 ± 0.01 nM |
| CC(C)C[C@H](NC(=O)[C@H](CC(=O)O)NC(=O)[C@H](CCC(N)=O)NC(=O)[C@H](CC(N)=O)NC(=O)[C@H](CCC(N)=O)NC(=O)[C@@H](N)CC(C)C)C(=O)N[C@H]1CSSC[C@@H](C(=O)N[C@@H](CCCCN)C(=O)NCC(=O)N[C@@H](CO)C(=O)N[C@@H](CCCCNC(=O)CCCC[C@@H]2SC[C@@H]3NC(=O)N[C@@H]32)C(N)=O)NC(=O)[C@H](Cc2ccccc2)NC(=O)[C@H](Cc2ccc(O)cc2)NC(=O)[C@H](CC(=O)O)NC(=O)[C@H](C)NC(=O)[C@H](Cc2ccc(O)cc2)NC(=O)[C@H](CC(=O)O)NC1=O | anti-HA antibody 12CA5 (mouse) | biolayer interferometry | 30 °C | Kd | < 1 nM |
| Cc1nc2ccc(CN(C)c3ccc(C(=O)NC(CCC(=O)O)CC(=O)O)cc3)cc2c(=O)[nH]1 (centres unmarked) | 4'-phosphopantetheinyl transferase PptT | enzyme activity, inhibitor, FP | – | IC50 | 47 nM |
| CC[C@H](C)[C@H](NC(=O)[C@@H]1CCCN1C(=O)[C@H](CCC(=O)O)NC(=O)[C@H](CCSC)NC(=O)CNC(=O)[C@H](CC(N)=O)NC(=O)CNC(=O)CNC(=O)[C@H](CCC(=O)O)NC(=O)CNC(=O)[C@H](CCCNC(=N)N)NC(=O)[C@H](CCC(N)=O)NC(=O)[C@H](Cc1ccc(O)cc1)NC(=O)[C@H](CC(C)C)NC(=O)[C@H](CCCCN)NC(=O)[C@@H]1CCCN1C(=O)[C@H](CCC(N)=O)NC(=O)[C@H](C)NC(=O)[C@@H](NC(=O)[C@H](CCC(=O)O)NC(=O)[C@H](C)NC(=O)[C@H](CCC(=O)O)NC(=O)[C@@H](NC(=O)[C@@H]1CCCN1C(=O)[C@@H](N)CCCCN)C(C)C)C(C)C)C(=O)N1CCC[C@H]1C(=O)N[C@@H](CCC(=O)O)C(=O)N[C@@H](CC(=O)O)C(=O)N[C@@H](Cc1ccc(OS(=O)(=O)O)cc1)C(=O)N[C@@H](CC(C)C)C(=O)N[C@@H](CC(N)=O)C(=O)N[C@@H](CCC(=O)O)C(=O)N[C@@H](C)C(=O)N[C@@H](CC(C)C)C(=O)N[C@@H](CC(N)=O)C(=O)N[C@@H](C)C(=O)O | F2 gamma-thrombin | – | pH 8 | Ki | 20400 ± 1940 nM |
| CCN(CC)C(=O)[C@@H]1C=C2c3cccc4c3c(cn4C(=O)c3ccco3)C[C@H]2N(C)C1 | HRH4 (Homo sapiens, UniProt Q9H3N8) | ligand displacement, radioligand | – | Ki | > 10000 nM |
| C#CCN(Cc1cc(Cl)c2nc(C)[nH]c(=O)c2c1)c1ccc(C(=O)N[C@H](CCC(=O)O)C(=O)O)cc1 | 4'-phosphopantetheinyl transferase PptT | enzyme activity, inhibitor, FP | – | IC50 | 48 nM |
| CC[C@H](C)[C@H](NC(=O)[C@H](CCCNC(=N)N)NC(=O)[C@@H]1CCCN1C(=O)[C@H](C)NC(=O)[C@H](CC(N)=O)NC(=O)[C@H](CCCNC(=N)N)NC(=O)[C@H](CCC(N)=O)NC(=O)[C@H](CC(N)=O)NC(=O)[C@H](CCC(N)=O)NC(=O)[C@@H]1CCCN1C(=O)CNC(=O)[C@H](CC(N)=O)NC(=O)[C@H](CC(=O)O)NC(=O)[C@H](CO)NC(=O)[C@@H](N)CCSC)C(=O)N[C@H](C(=O)N[C@@H](Cc1ccccc1)C(=O)NCC(=O)NCC(=O)N1CCC[C@H]1C(=O)N[C@@H](CO)C(=O)N[C@@H](CC(=O)O)C(=O)N[C@@H](CO)C(=O)N[C@H](C(=O)NCC(=O)O)[C@@H](C)O)[C@@H](C)O | G3BP1 (Homo sapiens, UniProt Q13283) | binding | – | Kd | 8500 nM |
| CC[C@H](C)[C@H](NC(=O)[C@@H]1CCCN1C(=O)[C@H](CCC(=O)O)NC(=O)[C@H](CCSC)NC(=O)CNC(=O)[C@H](CC(N)=O)NC(=O)CNC(=O)CNC(=O)[C@H](CCC(=O)O)NC(=O)CNC(=O)[C@H](CCCNC(=N)N)NC(=O)[C@H](CCC(N)=O)NC(=O)[C@H](Cc1ccc(O)cc1)NC(=O)[C@H](CC(C)C)NC(=O)[C@H](CCCCN)NC(=O)[C@@H]1CCCN1C(=O)[C@H](CCC(N)=O)NC(=O)[C@H](C)NC(=O)[C@@H](NC(=O)[C@H](CCC(=O)O)NC(=O)[C@H](C)NC(=O)[C@H](CCC(=O)O)NC(=O)[C@@H](NC(=O)[C@@H]1CCCN1C(=O)[C@@H](N)CCCCN)C(C)C)C(C)C)C(=O)N1CCC[C@H]1C(=O)N[C@@H](CCC(=O)O)C(=O)N[C@@H](CC(=O)O)C(=O)N[C@@H](Cc1ccc(O)cc1)C(=O)N[C@@H](CC(C)C)C(=O)N[C@@H](CC(=O)O)C(=O)N[C@@H](CC(=O)O)C(=O)N[C@@H](CCC(=O)O)C(=O)N[C@@H](CO)C(=O)O | F2 gamma-thrombin | – | pH 8 | Ki | 43800 ± 2090 nM |
| CCCCCn1cc(C(=O)c2cccc3c2CC(C)(C)C3)c2ccccc21 | CNR1 (Homo sapiens, UniProt P21554, F170A) | G protein activation, agonist, BRET | – | EC50 | 7590 nM |
| COc1ccccc1C(C[N+](=O)[O-])c1c(-c2ccccc2)[nH]c2ccccc12 (centres unmarked) | CNR1 (Homo sapiens, UniProt P21554, F191A) | G protein activation, agonist, BRET | – | EC50 | 1140 nM |
| Cc1nc(=O)c2cc(CN(C)c3ccc(C(=O)NCc4cccc(C(=O)O)c4)s3)ccc2[nH]1 | 4'-phosphopantetheinyl transferase PptT | enzyme activity, inhibitor, fluorescence polarization | enzyme 100 nM | IC50 | 332 nM |
| Cc1ccc2c(C(C[N+](=O)[O-])c3cccs3)c(-c3ccccc3)[nH]c2c1 (centres unmarked) | CNR1 (Homo sapiens, UniProt P21554, Y172A) | G protein activation, agonist, BRET | – | EC50 | 180 nM |
| C#CCN(Cc1ccc2nc(C)[nH]c(=O)c2c1)c1ccc(C(=O)NC(CCC(=O)O)C(=O)O)c(N)c1 (centres unmarked) | 4'-phosphopantetheinyl transferase PptT | enzyme activity, inhibitor, FP | – | IC50 | 47 nM |
| O=[N+]([O-])CC(c1ccco1)c1c(-c2ccccc2)[nH]c2ccccc12 (centres unmarked) | CNR1 (Homo sapiens, UniProt P21554, V249A) | G protein activation, agonist, BRET | – | EC50 | 410 nM |
| CC(C)CC(C(=O)N1CC2(CC1C#N)C(=O)Nc1ccccc12)N(C)C(=O)c1cc2c(F)cc(F)c(F)c2[nH]1 (centres unmarked) | Cathepsin S (CTSS, Homo sapiens, UniProt P25774) | enzyme activity, inhibitor | – | IC50 | > 100000 nM |

A few entries again:
| SMILES | target | test | conditions | endpoint | value |
| --- | --- | --- | --- | --- | --- |
| C=CCN(Cc1ccc2nc(C)[nH]c(=O)c2c1)c1ccc(C(=O)N[C@H](CCC(=O)O)C(=O)O)s1 | 4'-phosphopantetheinyl transferase PptT | enzyme activity, inhibitor, FP | – | IC50 | 18 nM |
| CC[C@H](C)[C@H](NC(=O)[C@@H]1CCCN1C(=O)[C@H](CCC(=O)O)NC(=O)[C@H](CCSC)NC(=O)CNC(=O)[C@H](CC(N)=O)NC(=O)CNC(=O)CNC(=O)[C@H](CCC(=O)O)NC(=O)CNC(=O)[C@H](CCCNC(=N)N)NC(=O)[C@H](CCC(N)=O)NC(=O)[C@H](Cc1ccc(O)cc1)NC(=O)[C@H](CC(C)C)NC(=O)[C@H](CCCCN)NC(=O)[C@@H]1CCCN1C(=O)[C@H](CCC(N)=O)NC(=O)[C@H](C)NC(=O)[C@@H](NC(=O)[C@H](CCC(=O)O)NC(=O)[C@H](C)NC(=O)[C@H](CCC(=O)O)NC(=O)[C@@H](NC(=O)[C@@H]1CCCN1C(=O)[C@@H](N)CCCCN)C(C)C)C(C)C)C(=O)N1CCC[C@H]1C(=O)N[C@@H](CCC(=O)O)C(=O)N[C@@H](CC(=O)O)C(=O)N[C@@H](Cc1ccc(OS(=O)(=O)O)cc1)C(=O)N[C@@H](CC(C)C)C(=O)N[C@@H](CC(=O)O)C(=O)N[C@@H](CC(=O)O)C(=O)N[C@@H](CCC(=O)O)C(=O)N[C@@H](CO)C(=O)O | F2 gamma-thrombin | – | pH 8 | Ki | 2120 ± 116 nM |
| C#CCN(Cc1cc(Cl)c2nc(C)[nH]c(=O)c2c1)c1ccc(C(=O)N[C@H](CCC(=O)O)C(=O)O)cc1 | 4'-phosphopantetheinyl transferase PptT | enzyme activity, inhibitor, FP | – | IC50 | 48 nM |
